Measured values gathered from unrelated publications.
Each numbered part is a random draw from the data of one study; scales do not carry over between parts.
Chain of UniProt P10721 (whole entry, unmodified, looked up): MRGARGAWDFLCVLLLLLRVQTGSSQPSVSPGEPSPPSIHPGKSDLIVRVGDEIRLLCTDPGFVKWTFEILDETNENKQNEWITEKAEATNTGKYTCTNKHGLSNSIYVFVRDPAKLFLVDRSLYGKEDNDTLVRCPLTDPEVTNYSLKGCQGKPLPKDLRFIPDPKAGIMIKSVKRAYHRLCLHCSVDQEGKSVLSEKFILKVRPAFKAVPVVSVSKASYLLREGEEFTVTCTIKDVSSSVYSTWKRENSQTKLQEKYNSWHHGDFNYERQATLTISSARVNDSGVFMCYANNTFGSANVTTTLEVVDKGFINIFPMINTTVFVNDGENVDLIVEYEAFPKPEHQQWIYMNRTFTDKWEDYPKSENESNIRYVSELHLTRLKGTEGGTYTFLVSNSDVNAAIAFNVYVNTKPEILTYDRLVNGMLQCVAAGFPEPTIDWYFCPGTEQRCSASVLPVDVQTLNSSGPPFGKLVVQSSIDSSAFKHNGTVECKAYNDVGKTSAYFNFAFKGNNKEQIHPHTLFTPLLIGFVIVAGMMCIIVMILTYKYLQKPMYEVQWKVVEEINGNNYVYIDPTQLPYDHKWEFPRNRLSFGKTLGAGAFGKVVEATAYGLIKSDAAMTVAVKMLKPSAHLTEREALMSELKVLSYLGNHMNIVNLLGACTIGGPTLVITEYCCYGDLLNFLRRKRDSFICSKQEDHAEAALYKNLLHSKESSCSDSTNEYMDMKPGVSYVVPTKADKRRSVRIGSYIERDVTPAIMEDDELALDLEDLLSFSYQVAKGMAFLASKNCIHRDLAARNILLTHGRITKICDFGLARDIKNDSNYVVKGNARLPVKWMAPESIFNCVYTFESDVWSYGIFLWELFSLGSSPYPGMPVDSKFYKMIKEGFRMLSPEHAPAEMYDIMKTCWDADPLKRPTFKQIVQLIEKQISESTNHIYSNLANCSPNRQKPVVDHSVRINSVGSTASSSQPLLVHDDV
Chain of UniProt O14920 (whole entry, looked up): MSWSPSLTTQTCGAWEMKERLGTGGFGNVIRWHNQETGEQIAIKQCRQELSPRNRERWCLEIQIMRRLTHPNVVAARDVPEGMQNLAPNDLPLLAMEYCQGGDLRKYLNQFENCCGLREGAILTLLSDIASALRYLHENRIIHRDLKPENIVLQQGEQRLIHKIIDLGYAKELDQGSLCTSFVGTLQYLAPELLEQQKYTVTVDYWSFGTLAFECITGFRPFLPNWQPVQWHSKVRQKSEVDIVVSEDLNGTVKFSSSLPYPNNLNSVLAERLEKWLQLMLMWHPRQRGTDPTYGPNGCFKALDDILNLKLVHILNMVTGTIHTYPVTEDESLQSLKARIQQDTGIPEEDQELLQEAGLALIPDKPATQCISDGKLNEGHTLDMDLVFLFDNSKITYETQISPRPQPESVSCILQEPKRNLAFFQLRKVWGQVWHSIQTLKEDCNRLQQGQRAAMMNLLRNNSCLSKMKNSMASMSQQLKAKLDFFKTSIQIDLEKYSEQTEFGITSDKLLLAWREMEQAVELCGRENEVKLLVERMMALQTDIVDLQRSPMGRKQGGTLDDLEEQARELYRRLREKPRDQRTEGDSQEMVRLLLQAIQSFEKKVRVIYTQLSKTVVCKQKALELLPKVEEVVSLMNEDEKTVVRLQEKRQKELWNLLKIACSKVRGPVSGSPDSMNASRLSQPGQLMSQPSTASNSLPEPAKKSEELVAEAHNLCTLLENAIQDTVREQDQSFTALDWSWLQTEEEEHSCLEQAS
Chain of UniProt O95382 (whole entry, looked up): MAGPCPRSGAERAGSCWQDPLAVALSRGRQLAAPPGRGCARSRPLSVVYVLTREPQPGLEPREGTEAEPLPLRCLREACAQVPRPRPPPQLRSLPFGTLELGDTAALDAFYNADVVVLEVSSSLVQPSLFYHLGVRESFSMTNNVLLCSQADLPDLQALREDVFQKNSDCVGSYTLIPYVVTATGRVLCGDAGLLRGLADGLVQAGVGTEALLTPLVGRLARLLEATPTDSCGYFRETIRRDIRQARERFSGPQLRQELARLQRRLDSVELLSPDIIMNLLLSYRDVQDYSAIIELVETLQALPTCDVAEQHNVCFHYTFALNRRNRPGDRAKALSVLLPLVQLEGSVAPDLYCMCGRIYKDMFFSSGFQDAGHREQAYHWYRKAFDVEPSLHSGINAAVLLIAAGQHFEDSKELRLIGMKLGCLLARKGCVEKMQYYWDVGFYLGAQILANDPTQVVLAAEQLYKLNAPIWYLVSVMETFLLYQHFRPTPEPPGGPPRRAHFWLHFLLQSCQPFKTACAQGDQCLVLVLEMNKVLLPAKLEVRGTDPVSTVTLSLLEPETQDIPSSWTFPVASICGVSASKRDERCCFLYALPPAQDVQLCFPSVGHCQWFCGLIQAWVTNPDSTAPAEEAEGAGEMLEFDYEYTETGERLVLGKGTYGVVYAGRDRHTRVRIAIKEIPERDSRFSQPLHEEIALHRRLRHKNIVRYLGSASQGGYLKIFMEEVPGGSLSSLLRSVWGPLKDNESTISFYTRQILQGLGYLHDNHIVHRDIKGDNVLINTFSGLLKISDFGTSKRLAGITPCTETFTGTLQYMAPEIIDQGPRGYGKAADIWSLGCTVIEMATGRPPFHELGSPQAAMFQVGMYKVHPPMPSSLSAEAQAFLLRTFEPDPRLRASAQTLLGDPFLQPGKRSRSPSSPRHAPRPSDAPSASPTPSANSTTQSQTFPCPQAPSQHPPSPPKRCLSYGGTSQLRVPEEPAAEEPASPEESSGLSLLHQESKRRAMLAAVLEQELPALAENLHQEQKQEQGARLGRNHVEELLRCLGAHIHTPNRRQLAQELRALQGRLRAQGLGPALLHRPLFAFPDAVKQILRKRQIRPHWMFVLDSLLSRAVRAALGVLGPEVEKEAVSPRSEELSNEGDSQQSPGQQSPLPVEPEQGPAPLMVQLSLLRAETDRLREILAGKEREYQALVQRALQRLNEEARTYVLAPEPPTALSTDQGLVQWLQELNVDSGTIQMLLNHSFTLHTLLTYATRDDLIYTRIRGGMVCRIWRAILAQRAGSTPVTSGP
Chain of UniProt Q9NY57 (whole entry, looked up): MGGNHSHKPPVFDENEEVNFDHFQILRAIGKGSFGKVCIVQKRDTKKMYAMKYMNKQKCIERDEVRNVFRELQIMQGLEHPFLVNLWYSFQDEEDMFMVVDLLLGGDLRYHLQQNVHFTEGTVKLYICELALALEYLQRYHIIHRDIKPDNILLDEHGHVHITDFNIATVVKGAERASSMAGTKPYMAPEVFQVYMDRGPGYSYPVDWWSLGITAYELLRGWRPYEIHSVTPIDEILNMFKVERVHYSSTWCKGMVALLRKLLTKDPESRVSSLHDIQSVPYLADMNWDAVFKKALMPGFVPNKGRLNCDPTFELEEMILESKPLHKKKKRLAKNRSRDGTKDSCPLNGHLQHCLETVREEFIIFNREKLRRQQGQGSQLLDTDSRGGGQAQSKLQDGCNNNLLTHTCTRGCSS
Chain of UniProt P05771 (whole entry, looked up): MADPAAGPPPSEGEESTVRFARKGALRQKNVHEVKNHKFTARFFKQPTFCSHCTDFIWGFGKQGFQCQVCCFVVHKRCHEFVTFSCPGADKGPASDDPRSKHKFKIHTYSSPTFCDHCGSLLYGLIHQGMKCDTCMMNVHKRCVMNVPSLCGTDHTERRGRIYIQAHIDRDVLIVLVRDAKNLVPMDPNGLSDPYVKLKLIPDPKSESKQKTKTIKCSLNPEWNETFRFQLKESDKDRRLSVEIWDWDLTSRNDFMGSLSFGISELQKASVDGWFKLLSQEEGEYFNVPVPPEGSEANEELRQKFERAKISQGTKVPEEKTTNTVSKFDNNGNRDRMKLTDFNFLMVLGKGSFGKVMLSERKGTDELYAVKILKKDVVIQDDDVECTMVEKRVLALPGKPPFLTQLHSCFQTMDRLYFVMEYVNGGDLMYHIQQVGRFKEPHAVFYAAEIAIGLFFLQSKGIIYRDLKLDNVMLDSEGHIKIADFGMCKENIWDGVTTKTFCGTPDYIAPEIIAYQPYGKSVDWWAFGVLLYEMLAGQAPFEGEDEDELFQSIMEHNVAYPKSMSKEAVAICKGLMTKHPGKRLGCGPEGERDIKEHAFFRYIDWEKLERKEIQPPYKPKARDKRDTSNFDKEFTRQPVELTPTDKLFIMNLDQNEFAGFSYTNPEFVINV
Chain of UniProt Q13131 (whole entry, looked up): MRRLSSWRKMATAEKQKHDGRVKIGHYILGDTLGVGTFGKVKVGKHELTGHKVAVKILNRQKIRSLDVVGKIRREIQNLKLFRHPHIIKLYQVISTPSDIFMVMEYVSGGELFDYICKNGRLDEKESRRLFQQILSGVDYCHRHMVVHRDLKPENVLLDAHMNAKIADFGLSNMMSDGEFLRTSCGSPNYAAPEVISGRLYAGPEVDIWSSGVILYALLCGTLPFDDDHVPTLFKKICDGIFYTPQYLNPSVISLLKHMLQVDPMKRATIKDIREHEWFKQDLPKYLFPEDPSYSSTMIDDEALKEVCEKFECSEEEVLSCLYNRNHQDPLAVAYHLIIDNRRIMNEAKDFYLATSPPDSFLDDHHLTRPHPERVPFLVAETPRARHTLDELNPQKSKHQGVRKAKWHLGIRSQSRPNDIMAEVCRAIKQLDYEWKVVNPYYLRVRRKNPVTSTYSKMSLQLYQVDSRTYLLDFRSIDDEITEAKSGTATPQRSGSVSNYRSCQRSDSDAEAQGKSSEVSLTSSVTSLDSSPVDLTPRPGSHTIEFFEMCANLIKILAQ

Sample 1
Observed: AlphaScreen signal
Method: AlphaScreen counter screen
Matrix: His6 peptide without bromodomain
Concentration: 50 µM
Setting: assay interference check
With Nc1cccc(-c2cc3c(Oc4cccc(O)c4)ncnc3[nH]2)c1 the inhibition was 12.5%.
N#CC(=Cc1c(F)cccc1F)c1nc2ccccc2s1 gave an inhibition of 18.5%.
CCOc1cc(C=C(C#N)C(N)=O)cc(CSc2ccccc2)c1O gave an inhibition of 30.7%.
For O=C1Nc2ccc3ncsc3c2C1=CNc1ccc(S(=O)(=O)Nc2ccccn2)cc1, the inhibition was 17.9%.
The inhibition of Cc1ccc2c(c1)C(=NNC(=O)c1cccc(O)c1)C(=O)N2 is reported as 14.1%.
For O=c1cc(-c2ccc(O)cc2)oc2cc(O)cc(O)c12.O=c1cc(-c2ccc(O)cc2)oc2cc(O)cc(O)c12, the inhibition was 21.3%.

Sample 2
Compound: C=CC(=O)N1CCC([C@@H]2CCNc3c(C(N)=O)c(-c4ccc(Oc5ccccc5)cc4)nn32)CC1
Concentration: 1 µM
The inhibition was 16% (KIT (Homo sapiens, UniProt P10721, D816H); enzyme activity, inhibitor).
The inhibition was 29% (DDR1 (Homo sapiens, UniProt Q08345); cell-free assay).
MAP3K6 (Homo sapiens, UniProt O95382); enzyme activity, inhibitor — inhibition: 0%.
It gave 0% for inhibition (NEK4 (Homo sapiens, UniProt P51957); enzyme activity, inhibitor).

Sample 3
Compound: Cc1nc(C2CCN(C(=O)c3ccc(OC(F)(F)F)cc3N)CC2)c2ncc(N3CCN(C)CC3)cc2n1
Observed: cell-free assay
Method: competition with immobilised ligand
Concentration: 1 µM
MAP3K12 (Homo sapiens, UniProt Q12852) — remaining binding: 100%.
The remaining binding was 100% (PIP4K2C (Homo sapiens, UniProt Q8TBX8)).
It gave 97% for remaining binding (SLK (Homo sapiens, UniProt Q9H2G2)).
It gave 93% for remaining binding (PRKCQ (Homo sapiens, UniProt Q04759)).
For FGR (Homo sapiens, UniProt P09769): remaining binding read 100%.
STK32B (Homo sapiens, UniProt Q9NY57) — remaining binding: 90%.
The remaining binding was 95% (NUAK1 (Homo sapiens, UniProt O60285)).
NEK2 (Homo sapiens, UniProt P51955) — remaining binding: 100%.
The remaining binding was 76% (Mast/stem cell growth factor receptor Kit, autoinhibited (KIT, Homo sapiens, UniProt P10721)).
For DYRK2 (Homo sapiens, UniProt Q92630): remaining binding read 100%.
For Tyrosine-protein kinase ABL1, phosphorylated (ABL1, Homo sapiens, UniProt P00519, H396P): remaining binding read 89%.
The remaining binding was 100% (EPHA4 (Homo sapiens, UniProt P54764)).
For IKBKB (Homo sapiens, UniProt O14920): remaining binding read 78%.
PRKAA1 (Homo sapiens, UniProt Q13131) — remaining binding: 98%.
The remaining binding was 96% (PIK3CA (Homo sapiens, UniProt P42336, I800L)).

Sample 4
Cell line: Huh-7
Concentration: 10 µM
Time: 24 h
The viability of CCOc1nc2cccc(C(=O)OC(C)OC(=O)OC3CCCCC3)c2n1Cc1ccc(-c2ccccc2-c2nnn[nH]2)cc1 (centres unmarked) is reported as 95.1%.
CC(=O)OCC(=O)[C@@]1(O)CC[C@H]2[C@@H]3CCC4=CC(=O)C=C[C@]4(C)[C@@]3(F)[C@@H](O)C[C@@]21C gave a viability of 98.9%.
The viability of CC1(C)[C@@H](OC(=O)CCC(=O)O)CC[C@]2(C)[C@H]3C(=O)C=C4[C@@H]5C[C@@](C)(C(=O)O)CC[C@]5(C)CC[C@@]4(C)[C@]3(C)CC[C@@H]12 is reported as 97.3%.
The viability of C[C@@H](NCCc1ccc(O)cc1)[C@@H](O)c1ccc(O)cc1 (racemic) is reported as 96.6%.
The viability of CO/N=C(\C(=O)N[C@@H]1C(=O)N2C(C(=O)O)=C(CSc3nc(=O)c(=O)[nH]n3C)CS[C@H]12)c1csc(N)n1 is reported as 101%.
With Oc1ccc(Cl)c2cccnc12 the viability was 68.4%.

Sample 5
Compound: O=C(O)/C=C/c1cc(Br)c(Br)c(Br)c1Br
Observed: enzyme activity
Action: inhibitor
Concentration: 0.5 µM
Baseline: control
It gave 86.1% for remaining activity (STK24 (Homo sapiens, UniProt Q9Y6E0)).
For Protein kinase C beta type, isoform beta-II (PRKCB, Homo sapiens, UniProt P05771): remaining activity read 84.7%.
The remaining activity was 96.3% (MAP3K11 (Homo sapiens, UniProt Q16584)).
The remaining activity was 90.2% (DAPK3 (Homo sapiens, UniProt O43293)).

Excerpt of the above (sample 1):
CCOc1cc(C=C(C#N)C(N)=O)cc(CSc2ccccc2)c1O gave an inhibition of 30.7%.
For O=C1Nc2ccc3ncsc3c2C1=CNc1ccc(S(=O)(=O)Nc2ccccn2)cc1, the inhibition was 17.9%.
The inhibition of Cc1ccc2c(c1)C(=NNC(=O)c1cccc(O)c1)C(=O)N2 is reported as 14.1%.
